Experimental data pooled from the literature.
A part holds a random share of what one study measured.

Sample 1 — technique: universal PBM; molecule type: double-stranded DNA, one strand shown; medium: in vitro; tested at: 600 nM; direction: higher = stronger binding; quantity: E-score
Target: Sal-like protein 4, full length isoform A (SALL4, Homo sapiens, UniProt Q9UJQ4, residues 1-1053)
UniProt Q9UJQ4, sequence (whole entry, looked up): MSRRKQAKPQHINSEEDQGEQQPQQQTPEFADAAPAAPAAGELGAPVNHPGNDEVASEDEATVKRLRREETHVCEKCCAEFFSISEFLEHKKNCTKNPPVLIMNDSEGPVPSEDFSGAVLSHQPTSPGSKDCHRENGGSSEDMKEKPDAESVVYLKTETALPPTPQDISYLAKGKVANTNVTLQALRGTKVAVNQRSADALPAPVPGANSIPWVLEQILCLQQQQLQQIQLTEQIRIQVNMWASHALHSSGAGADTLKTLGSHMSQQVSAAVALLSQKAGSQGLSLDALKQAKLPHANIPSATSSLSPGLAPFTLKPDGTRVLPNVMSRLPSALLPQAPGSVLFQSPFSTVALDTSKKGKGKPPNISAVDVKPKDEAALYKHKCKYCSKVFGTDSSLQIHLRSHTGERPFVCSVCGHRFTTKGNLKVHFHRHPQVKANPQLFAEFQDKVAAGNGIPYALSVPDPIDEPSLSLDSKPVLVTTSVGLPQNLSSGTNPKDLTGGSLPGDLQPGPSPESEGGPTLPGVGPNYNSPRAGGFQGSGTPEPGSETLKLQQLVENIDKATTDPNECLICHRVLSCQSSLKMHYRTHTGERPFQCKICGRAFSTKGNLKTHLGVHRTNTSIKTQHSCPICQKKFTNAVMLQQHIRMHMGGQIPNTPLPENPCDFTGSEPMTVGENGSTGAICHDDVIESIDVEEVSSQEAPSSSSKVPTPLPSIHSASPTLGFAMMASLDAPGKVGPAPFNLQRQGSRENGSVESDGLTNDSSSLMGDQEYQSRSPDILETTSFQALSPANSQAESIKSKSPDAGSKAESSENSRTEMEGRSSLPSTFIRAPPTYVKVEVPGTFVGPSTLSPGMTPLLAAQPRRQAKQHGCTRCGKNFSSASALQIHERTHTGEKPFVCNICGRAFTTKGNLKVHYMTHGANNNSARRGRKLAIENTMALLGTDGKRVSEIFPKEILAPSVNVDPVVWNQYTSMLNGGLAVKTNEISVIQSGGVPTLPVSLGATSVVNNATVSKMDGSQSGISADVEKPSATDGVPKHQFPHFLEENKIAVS
Notes: 8-mer, flanks averaged, mean of replicates
ACTGATGC: -0.081
GACAATTA: 0.291
AAGGTCAC: -0.196

Mixed results
PABPC1L2 full length, GST fusion: PABPC1L2, full length, GST fusion (mouse, UniProt A0ABA7IW68)
UUGUCGG  7-mer Z-score (PABPC1L2 full length, GST fusion; RNAcompete; RNA, in vitro; 20 nM, 7-mer, probes averaged, single round; relative to: mean of 7-mers, higher = stronger binding): -0.394
PhoQ, residues 284 288 289 292 302 303 SSTLLI  fold induction (PhoP, residues 12 14 15 18 19 SGWQI (Escherichia coli, UniProt P23836); Sort-seq, measured: YFP reporter; E. coli; PhoQ-PhoP variant library, together with: 10 µM Mg2+; relative to: high Mg2+ state, higher = stronger signaling): 2.16
ACTATCGC  E-score (Histone acetyltransferase KAT6A, winged helix 1, GST fusion (KAT6A, Homo sapiens, UniProt Q92794, residues 1-85); protein binding microarray; double-stranded DNA, one strand shown, in vitro; not given, 8-mer, flanks averaged, mean of 2 arrays, mostly near background; relative to: not given, higher = stronger binding): 0.00368
GCACUGA  7-mer Z-score (PABPC1L2 full length, GST fusion; RNAcompete; RNA, in vitro; 20 nM, 7-mer, probes averaged, single round; relative to: mean of 7-mers, higher = stronger binding): 0.00979

Repeated from above (mixed results):
GCACUGA  7-mer Z-score (PABPC1L2 full length, GST fusion; RNAcompete; RNA, in vitro; 20 nM, 7-mer, probes averaged, single round; relative to: mean of 7-mers, higher = stronger binding): 0.00979
